{"data": "Published values of several laboratories", "note": "“And” joins repeats or separate records; there may be more than shown. Numbers after ± are the reported error.", "sequence of UniProt Q96GD4 (whole entry, looked up)": "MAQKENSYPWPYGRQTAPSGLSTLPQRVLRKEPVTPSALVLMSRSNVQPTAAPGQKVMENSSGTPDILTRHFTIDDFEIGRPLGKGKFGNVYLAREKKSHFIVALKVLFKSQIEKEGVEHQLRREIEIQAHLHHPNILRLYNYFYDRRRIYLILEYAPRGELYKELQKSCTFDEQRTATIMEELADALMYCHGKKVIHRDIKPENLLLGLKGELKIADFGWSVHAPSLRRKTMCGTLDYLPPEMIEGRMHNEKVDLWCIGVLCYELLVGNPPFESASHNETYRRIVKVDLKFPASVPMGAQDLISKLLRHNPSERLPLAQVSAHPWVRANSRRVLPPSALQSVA", "sequence of UniProt P33261 (whole entry, looked up)": "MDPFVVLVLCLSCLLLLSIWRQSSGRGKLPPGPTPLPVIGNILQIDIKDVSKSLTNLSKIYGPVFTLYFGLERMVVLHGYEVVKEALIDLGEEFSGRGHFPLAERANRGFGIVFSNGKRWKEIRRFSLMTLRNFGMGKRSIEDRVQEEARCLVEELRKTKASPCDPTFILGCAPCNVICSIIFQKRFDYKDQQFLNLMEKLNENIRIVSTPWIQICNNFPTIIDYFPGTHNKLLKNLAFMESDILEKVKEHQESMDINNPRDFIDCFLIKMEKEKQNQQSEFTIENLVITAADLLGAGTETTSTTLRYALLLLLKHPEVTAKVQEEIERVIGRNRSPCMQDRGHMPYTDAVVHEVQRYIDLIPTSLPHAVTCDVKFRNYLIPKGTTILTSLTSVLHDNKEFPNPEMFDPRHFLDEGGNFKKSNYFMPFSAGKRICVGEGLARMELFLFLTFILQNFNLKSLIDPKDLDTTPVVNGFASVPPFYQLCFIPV", "sequence of UniProt Q00526 (whole entry, looked up)": "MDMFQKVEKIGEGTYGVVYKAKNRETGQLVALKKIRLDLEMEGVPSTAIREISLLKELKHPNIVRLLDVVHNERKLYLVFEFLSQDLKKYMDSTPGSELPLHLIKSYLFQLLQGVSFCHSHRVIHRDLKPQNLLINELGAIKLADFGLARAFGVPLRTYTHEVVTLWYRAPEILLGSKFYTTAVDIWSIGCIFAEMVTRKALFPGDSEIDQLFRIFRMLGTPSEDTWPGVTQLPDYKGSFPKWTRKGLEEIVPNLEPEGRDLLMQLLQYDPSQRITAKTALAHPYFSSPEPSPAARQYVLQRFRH"}
{"SMILES": "Cc1cc(-c2ccc3ccccc3c2)nnc1NCCN1CCN(C)CC1", "target or system": "CYP2C19 (Homo sapiens, UniProt P33261)", "assay": "substrate", "system": "recombinant enzyme", "setting": "100 nM, 0.5 h", "quantity": "remaining compound", "value": "92%"}
{"SMILES": "CS(C)(=O)=Nc1ccc(-c2ccc(-c3nc4cc(O[C@@H]5CO[C@H]6[C@@H]5OC[C@H]6O)[nH]c4cc3F)cc2)cc1", "target or system": "Cyclin-dependent kinase 3, with cyclin E (CDK3, Homo sapiens, UniProt Q00526)", "assay": "enzyme activity, inhibitor", "setting": "10 µM", "quantity": "inhibition", "value": "4%"}
{"SMILES": "CC(C)(C)C(=O)OCOP(=O)(OCOC(=O)C(C)(C)C)C1CCCN(O)C1=O (stereo not drawn)", "target or system": "RXF 393", "quantity": "log LC50", "value": "> -4 log M"}
{"SMILES": "CCCCCCCCCCCC(=O)C(C)C(=O)N1CCC[C@H]1C(=O)NC(C)(C)C(=O)NC(C)(C)C(=O)NC(C)(C)C(=O)N[C@](C)(CC)C(=O)NCCC(=O)N[C@@H](C)C(=O)N[C@](C)(CC)C(=O)N[C@@H](C)C(=O)N[C@@H](CC(C)C)C(=O)N[C@](C)(CC)C(=O)NCCC(=O)N[C@@H](C)C(=O)N[C@](C)(CC)C(=O)NCCC(=O)N[C@@H](C)C(=O)NC(C)(C)C(=O)NC(C)(C)C(=O)NC(C)(C)C(=O)N[C@@H](C)C(=O)N[C@@H](CC(=O)O)C(=O)O (stereo partly drawn)", "assay": "LC-MS", "system": "buffer with trypsin", "setting": "40 µM, 540 min, pH 7.5, 37 °C", "scale": "baseline: 0 h", "quantity": "remaining intact peptide", "value": "62% and 64.4% and 53.6%"}
{"SMILES": "CC(C)[C@@H]1NC(=O)CNC(=O)[C@H](CC(N)=O)NC(=O)[C@H](CCCNC(=N)N)NC(=O)[C@H](Cc2ccc(O)cc2)NC(=O)[C@H](C(C)C)NC(=O)[C@@H](NC(=O)[C@@H](NC(=O)[C@H](CC(N)=O)NC(=O)[C@H](Cc2c[nH]c3ccccc23)NC(=O)[C@H](C)NC(=O)[C@H](Cc2ccccc2)NC(=O)CNC(=O)[C@H](CCCCN)NC(=O)[C@H](Cc2ccccc2)NC(=O)[C@H](Cc2ccccc2)NC(=O)[C@H](CCCCN)NC(=O)OCC2c3ccccc3-c3ccccc32)C(C)C)CSSC[C@@H](C(=O)N[C@@H](Cc2c[nH]cn2)C(=O)N[C@@H](CCCNC(=N)N)C(=O)N[C@@H](CCCNC(=N)N)C(=O)N[C@@H](C)C(=O)N[C@@H](CC(N)=O)C(N)=O)NC(=O)[C@H](C(C)C)NC(=O)[C@H](CCCNC(=N)N)NC1=O", "system": "mouse mammary gland homogenate 50 mg/mL", "setting": "24.00 h, 37 °C", "quantity": "peptide remaining", "value": "36% and 42.1% and 40.8%"}
{"SMILES": "C#Cc1c(F)ccc2cc(O)cc(-c3ncc4c(N5CC6CCC(C5)N6C(=O)OC(C)OC(=O)CCCCC)nc(OC[C@@]56CCCN5C[C@H](F)C6)nc4c3F)c12 (stereo partly drawn)", "assay": "chemical stability", "system": "simulated intestinal fluid", "setting": "1 µM, 30 min", "quantity": "compound remaining", "value": "56.1%"}
{"SMILES": "CC(=O)NCCCC[C@@H]1NC(=O)[C@H](Cc2c[nH]c3c(C)cccc23)NC(=O)[C@H]([C@@H](C)O)NC(=O)[C@H](CC(N)=O)NC(=O)[C@@H](NC(C)=O)C(C)(C)SSC(C)(C)[C@@H](C(=O)N[C@@H](Cc2ccc(OCCN)cc2)C(=O)N[C@@H](Cc2ccc3ccccc3c2)C(=O)NC2(C(=O)N[C@@H](CCC(=O)O)C(=O)N[C@@H](CC(N)=O)C(=O)N[C@@H](Cc3cccnc3)C(=O)N(C)CC(N)=O)CCOCC2)NC1=O", "system": "cynomolgus monkey, blood", "setting": "0.0013 µM, 2 h", "quantity": "whole blood to plasma concentration ratio", "value": "0.43 ± 0.01"}
{"SMILES": "C=Cc1c(C)c2cc3nc(c(CC(=O)[O-])c4[n-]c(cc5nc(cc1[n-]2)C(C)=C5CC)c(C)c4C(=O)[O-])C(CCC(=O)[O-])C3C.[Cu+2].[Na+].[Na+].[Na+] (stereo not drawn)", "system": "Wistar rat, male", "setting": "oral, 500 mg/kg daily, 28 days", "quantity": "haemoglobin", "value": "14.4 ± 0.64 g/dL"}
{"SMILES": "Cc1cc(C(=O)Nc2nc3cccc(C)c3n2[C@H]2CCCCN(C(=O)/C=C/CN(C)C)C2)ccn1", "target or system": "Trypanosoma brucei", "system": "STIB795, mouse acute HAT model", "setting": "oral, 7.5 mg/kg once daily for 4 days, day 6", "scale": "baseline: mice", "quantity": "survival", "value": "66.7%"}
{"SMILES": "COc1ccccc1-c1n[nH]c2nc(N[C@H]3CC[C@H](NS(=O)(=O)CC(C)C)CC3)ncc12", "assay": "bead binding, competition bead pull-down, refers to: LINJ.27.1710", "system": "Leishmania donovani extract", "setting": "10 µM", "scale": "baseline: vehicle", "quantity": "relative abundance", "value": 0.96}
{"SMILES": "C=CC(=O)Nc1cccc(Cn2ncc3cnc(Nc4cnn(CCOC)c4)nc32)c1", "system": "female Sprague-Dawley rat", "setting": "oral, 180 mg/kg/day, day 28, 28-day subacute toxicity", "quantity": "blood PDW", "value": "15.7 ± 0.41 fL"}
{"SMILES": "O=C(c1cc(Cc2n[nH]c(=O)c3ccccc23)ccc1F)N1CC(CNC2CC2)C1", "system": "Wistar Han rat, male, blood", "setting": "oral, 15 mg/kg daily, 4 weeks", "quantity": "haemoglobin", "value": "16.6 ± 0.7 g/dL"}
{"SMILES": "N#[11C]c1ccc(-c2csc(NN=C3CCCC3)n2)cc1", "system": "C57BL/6 mice, male, heart", "setting": "intravenous, 3 MBq, 60 min", "quantity": "radioactivity uptake", "value": "1.12 ± 0.17 %ID/g"}
{"SMILES": "O=C1NC2(CC2)COc2ncc(F)cc2[C@H]2COCCN2c2ccn3ncc1c3n2", "system": "Sprague-Dawley rat, male, blood", "setting": "oral, 2.5 mg/kg/day, 4 weeks, end of treatment, subacute toxicity", "quantity": "monocyte percentage", "value": "2.3 ± 0.8%"}
{"SMILES": "CC[C@H](C)[C@H](NC(=O)[C@H](CCCCN)NC(=O)CNC(=O)[C@H](CC(C)C)NC(=O)[C@H](Cc1ccccc1)NC(=O)[C@H](CCCCN)NC(=O)[C@H](CO)NC(=O)[C@H](Cc1ccccc1)NC(=O)[C@H](Cc1c[nH]c2ccccc12)NC(=O)[C@H](CCC(N)=O)NC(=O)[C@@H](NC(=O)[C@H](Cc1ccccc1)NC(=O)CCCCCNC(=O)CN1CCN(CC(=O)O)CCN(CC(=O)O)CCN(CC(=O)O)CC1)C(C)C)C(=O)N[C@@H](CCC(=O)O)C(=O)N1CCC[C@H]1C(=O)N[C@@H](CC(=O)O)C(=O)N[C@H](C(=O)N[C@@H](CO)C(=O)N[C@@H](CCC(N)=O)C(=O)N[C@H](C(=O)N[C@@H](CCC(N)=O)C(=O)N[C@@H](CC(=O)O)C(=O)N1CCC[C@H]1C(=O)N[C@@H](CC(N)=O)C(=O)N[C@@H](CC(=O)O)C(=O)N[C@@H](CCC(N)=O)C(=O)N[C@@H](Cc1ccc(O)cc1)C(=O)N[C@@H](CCC(=O)O)C(=O)N1CCC[C@H]1C(=O)N[C@@H](Cc1ccccc1)C(=O)O)C(C)C)C(C)C [copper-64 labelled]", "system": "BALB/c mice, male, CT26 tumour-bearing, brain", "setting": "2 h, anti-PD1 plus anti-CTLA4 treated", "quantity": "tissue uptake", "value": "0.12 ± 0.01 %ID/g"}
{"SMILES": "CN(C)[C@H]1C[C@@]23CC[C@@]4(O2)C(=CC[C@]2(C)[C@@H](c5ccc6ccncc6c5)CC[C@H]24)C=C3[C@@H](O)[C@@H]1O", "target or system": "Aurora kinase B (AURKB, Homo sapiens, UniProt Q96GD4)", "assay": "ATP probe labelling, inhibitor, KiNativ profiling", "setting": "1 µM", "quantity": "inhibition", "value": "3%"}
{"SMILES": "COc1ccccc1-c1n[nH]c2nc(NC3CCN(C(=O)Cc4ccc(F)cc4F)CC3)ncc12", "assay": "bead binding, competition bead pull-down, refers to: LINJ.27.1710", "system": "Leishmania donovani extract", "setting": "10 µM", "scale": "baseline: vehicle", "quantity": "relative abundance", "value": 0.98}
{"SMILES": "CC1(C)C(=O)N(c2ccc(C#N)c(C(F)(F)F)c2)C(=S)N1c1ccc(C(N)=O)c(F)c1", "system": "healthy male humans, plasma", "setting": "oral, 160 mg, fasting, soft capsules", "quantity": "median Tmax", "value": "204 h"}
{"SMILES": "CCCC[C@H]1C(=O)N(C)[C@@H](CCCC)C(=O)N[C@@H](CCCNC(=O)CN2CCN(CC(=O)O)CCN(CC(=O)O)CCN(CC(=O)O)CC2)C(=O)N[C@H](C(=O)NCC(N)=O)CSCC(=O)N[C@@H](Cc2ccc(O)cc2)C(=O)N(C)[C@@H](C)C(=O)N[C@@H](CC(N)=O)C(=O)N2CCC[C@H]2C(=O)N[C@@H](Cc2c[nH]cn2)C(=O)N[C@@H](CC(C)C)C(=O)N(C)CC(=O)N[C@@H](Cc2c[nH]c3ccccc23)C(=O)N[C@@H](CO)C(=O)N[C@@H](Cc2c[nH]c3ccccc23)C(=O)N1C [gallium-68 labelled]", "system": "NOD/SCID mice with CHO-hPD-L1 xenograft, spleen", "setting": "60 min post injection", "quantity": "tissue uptake", "value": "6.28 ± 1.91 %ID/g"}
{"SMILES": "CCCCCCCCCCCCCCCC(=O)N[C@@H](CCC(=O)NCCOCCOCCC(=O)NCCOCCOCCC(=O)NCCCC[C@H](NC(=O)[C@H](CC(=O)O)NC(=O)[C@H](CC(C)C)NC(=O)[C@H](Cc1ccc(O)cc1)NC(=O)[C@H](CCCCN)NC(=O)[C@H](CO)NC(=O)[C@H](Cc1ccc(O)cc1)NC(=O)[C@H](CC(=O)O)NC(=O)[C@H](CO)NC(=O)[C@@H](NC(=O)[C@H](Cc1ccccc1)NC(=O)[C@@H](NC(=O)CNC(=O)[C@H](CCC(N)=O)NC(=O)[C@@H](CO)NC(=O)[C@@H](N)Cc1c[nH]cn1)[C@@H](C)O)[C@@H](C)O)C(=O)N[C@@H](CCCNC(=N)N)C(=O)N[C@@H](CCCNC(=N)N)C(=O)N[C@@H](C)C(=O)N[C@@H](CCC(N)=O)C(=O)N[C@@H](CC(=O)O)C(=O)N[C@@H](Cc1ccccc1)C(=O)N[C@H](C(=O)N[C@@H](CCC(N)=O)C(=O)N[C@@H](Cc1c[nH]c2ccccc12)C(=O)N[C@@H](CC(C)C)C(=O)N[C@@H](CC(C)C)C(=O)N[C@@H](CC(N)=O)C(=O)N[C@H](C(=O)NCC(=O)NCC(=O)N1CCC[C@H]1C(=O)N[C@@H](CO)C(=O)N[C@@H](CO)C(=O)NCC(=O)N[C@@H](C)C(=O)N1CCC[C@H]1C(=O)N1CCC[C@H]1C(=O)N1CCC[C@H]1C(=O)N[C@@H](CO)C(N)=O)[C@@H](C)O)C(C)C)C(=O)O", "assay": "refers to: ALP", "system": "rhesus monkey, male", "setting": "subcutaneous, 20 µg/kg once daily, 28 days", "quantity": "serum enzyme activity", "value": "335 ± 92.5 U/L"}
{"SMILES": "CCCCCC(=O)N[C@@H](CCCNC(=N)N)C(=O)N[C@@H](Cc1c[nH]c2ccccc12)C(=O)N[C@@H](CCCCN)C(=O)N[C@H](C(=O)N[C@@H](Cc1ccccc1)C(=O)N[C@@H](CCCCN)C(=O)N[C@@H](CCCCN)C(=O)N[C@H](C(=O)N[C@@H](CCC(=O)O)C(=O)N[C@@H](CCCCN)C(=O)N[C@H](C(=O)NCC(=O)N[C@@H](CCC(N)=O)C(=O)N[C@@H](CC(N)=O)C(=O)N[C@H](C(=O)N[C@@H](CCCNC(=N)N)C(=O)N[C@@H](CC(=O)O)C(=O)NCC(=O)N[C@H](C(=O)N[C@H](C(=O)N[C@@H](CCCCN)C(=O)N[C@@H](C)C(=O)NCC(=O)N1CCC[C@H]1C(=O)N[C@@H](C)C(=O)N[C@H](C(=O)N[C@@H](C)C(=O)N[C@H](C(=O)N[C@H](C(=O)NCC(=O)N[C@@H](CCC(N)=O)C(=O)N[C@@H](C)C(=O)N[C@@H](C)C(=O)N[C@H](C(=O)N[C@H](C(N)=O)[C@@H](C)CC)[C@@H](C)O)C(C)C)C(C)C)C(C)C)C(C)C)[C@@H](C)CC)[C@@H](C)CC)C(C)C)[C@@H](C)CC)[C@@H](C)CC", "system": "mouse erythrocytes", "setting": "32 µM, 1 h, 37 °C", "quantity": "hemolysis", "value": "< 8%"}
